Published values collected from several papers.
Compare with care: the assays were run in different laboratories. Values joined by “and” are separate records of one study, mostly repeats; a detail may differ.
Target: Ephrin type-B receptor 2 (EPHB2, Homo sapiens, UniProt P29323)

Compound = O=c1c(-c2ccc(Cl)c(CN3CCOCC3)c2)coc2cc(O)ccc12; test = enzyme activity, inhibitor; conditions = 1 µM; quantity = remaining activity; value = 99%
Compound = Cc1ccc(-c2c(/C=C(\C#N)C(=O)NC(C)C)n(CCCO)c3ncnc(N)c23)cc1; test = cell-free assay, competition with immobilised ligand; conditions = 1 µM; quantity = remaining binding; value = 100%
Compound = O=C(Cc1ccc(OCc2ccccc2)cc1)NC1(C(=O)O)CCN(C(=O)c2ccc(-c3cccc(Cl)c3)cc2)CC1; test = enzyme activity, inhibitor; conditions = 10 µM; quantity = activity vs control; value = 89%
Compound = C[C@H]1CN(C(=O)c2cn(-c3ccnc(N)n3)c3cc(C#CC4(O)CCCCC4)ccc23)CCN1; test = enzyme activity, inhibitor, FRET; conditions = 1 µM; quantity = inhibition; value = -1%
Compound = COc1cc(Nc2nccc(-c3cnn4nc(OC)ccc34)n2)cc(C(F)(F)F)c1; test = binding, competition with immobilised ligand; conditions = 1 µM; quantity = remaining binding; value = 100%
Compound = CCN1CCN(Cc2ccc(C(=O)Nc3ccc(C)c(NCc4cnc5[nH]ccc5c4OC)c3)cc2C(F)(F)F)CC1; test = binding, competition with immobilised ligand; conditions = 1 µM; quantity = remaining binding; value = 5.3%
Compound = NC(=O)C[C@H]1CCc2sc3ncnc(O[C@H]4CC[C@H](N5CCOCC5)CC4)c3c21; test = enzyme activity, inhibitor; conditions = 10 µM; quantity = inhibition; value = 8%
Compound = C=CC(=O)Nc1cccc(-c2cnc3[nH]cc(C(=O)NC(C)(C)C)c3n2)c1; test = kinase activity; conditions = 0.1 µM; quantity = inhibition; value = -2% and -3%
Compound = COc1ccc(NC(=O)Nc2ccc3c(c2)C(=O)N(C(C)CO)CC(C)C(CN(C)Cc2ccc4c(c2)OCO4)O3)cc1 (stereo not shown); test = kinase activity, KinaseProfiler; conditions = 0.03 µM, species human; how to read = relative to: control; quantity = remaining activity; value = 102%
Compound = COc1c(Cl)cccc1Nc1c(-c2ccncc2C#C[C@@]2(C)CCCN2C(=O)/C=C/CN(C)C)[nH]c2c1C(=O)NCC2; test = cell-free assay, competition with immobilised ligand; conditions = 3 µM; quantity = remaining binding; value = 85%
Compound = C=CC(=O)N1CCCC(n2c(=O)c3ncccc3n(Cc3ccc(Oc4ccccc4)cc3)c2=O)C1 (stereo not shown); test = cell-free assay, competition with immobilised ligand; conditions = 1 µM; quantity = remaining binding; value = 100%
Compound = CN1CC[C@@H](COc2cnc(C#N)cc2-c2ccn3nc(NC(=O)C4CC4)cc3c2)C1; test = enzyme activity, inhibitor; conditions = 1 µM; quantity = inhibition; value = -6%
Compound = Cc1cccc(O[C@H]2CCC[C@@H](C(C)CNCc3ccncc3)C2)c1 (relative stereo); test = kinase activity, kinome panel screening; conditions = 10 µM; quantity = inhibition; value = -34%
Compound = CC(C)=CC1OC(C)(C)C2C=C3C(=O)C(Cl)=CC(O)C3C3C(O)C4OC4C(=O)C132 (stereo not shown); test = cell-free assay, competition with immobilised ligand; conditions = 10 µM; quantity = remaining binding; value = 92%
Compound = CNC1C[S+]2CC[S+]3CC[S+](C1)[Ru-4]321([N]=C=S)[n]2c3ccc(OC)cc3c3c4c(c5cc(F)c[n+]1c5c32)C(=O)NC4=O (stereo not shown); test = KinomeScan; conditions = 0.1 µM; how to read = relative to: untreated; quantity = remaining binding; value = 100%
Compound = Cc1cnc2nc1Nc1cccc(c1)COC/C=C/COCc1cc(ccc1OCCN1CCOCC1)N2; conditions = concentration not given; quantity = percent of control; value = 100%

A few entries again:
Compound = CC(C)=CC1OC(C)(C)C2C=C3C(=O)C(Cl)=CC(O)C3C3C(O)C4OC4C(=O)C132 (stereo not shown); test = cell-free assay, competition with immobilised ligand; conditions = 10 µM; quantity = remaining binding; value = 92%
